Results collected from several papers.
Every numbered part comes from another study and shows a few of its results, in no order.

Sample 1 — species: mouse, PTZ-induced seizures; route: oral; dose: 20 mg/kg; time: 0.5 h; together with: PTZ 85 mg/kg i.p.
SMILES | seizure protection [%]
O=C(O)COc1ccc(Br)cc1/C=N/NC(=O)CNc1ccccc1 | 50
O=C(O)COc1ccccc1/C=N/NC(=O)CNc1ccc(Cl)cc1 | 80
Cc1ccc(NCC(=O)N/N=C/c2cc(Br)ccc2OCC(=O)O)cc1 | 40
Cc1ccc(C(=O)N/N=C/c2cc(Br)ccc2OCC(=O)O)cc1 | 80
O=C(O)COc1ccc(Br)cc1/C=N/NC(=O)c1ccccc1 | 60

Sample 2 — observed: enzyme activity; action: inhibitor
Target: Cyclin-dependent kinase 2, with cyclin A (CDK2, Homo sapiens, UniProt P24941)
Compound | IC50 [µM]
Cc1cccc(-c2ccc3nc(NC(=O)CCC4CCCC4)nn3c2)c1 | > 100
COc1cccc(-c2ccc3nc(NC(=O)C4CCCCC4)nn3c2)c1 | > 100
O=C(Nc1nc2ccccn2n1)C1CCCCC1 | > 100
Cc1ccc(C)c(-c2ccc3nc(NC(=O)C4CCCCC4)nn3c2)c1 | > 100
O=C(Nc1nc2ccc(-c3cccc(Cl)c3)cn2n1)C1CCCCC1 | > 100
Cc1ccc(NC(=O)Nc2ccnc(-c3cccnc3)n2)cc1 | 0.026
O=C(Nc1nc2ccc(-c3ccc(O)cc3)cn2n1)C1CCCCC1 | 0.86

Sample 3 — medium: rat liver microsomes; concentration: 5 µM; time: 15 min
SMILES | compound metabolized [%]
FC(F)(F)c1c(CN2CCC(c3ccccc3)CC2)ccn2c(CC3CC3)nnc12 | 84
Cc1cc(Oc2ccc(-c3ccn4c(CC5CC5)nnc4c3C(F)(F)F)cc2F)ccn1 | 29
FC(F)(F)c1c(-c2ccc3c(ccn3-c3cccnc3)c2)ccn2c(CC3CC3)nnc12 | 89
CCOCc1nnc2c(C(F)(F)F)c(-c3ccc4[nH]ccc4c3)ccn12 | 97
FC(F)(F)c1c(-c2ccc(N3CCNCC3)c(Cl)c2)ccn2c(CC3CC3)nnc12 | 23
Clc1c(-c2ccc(Oc3ccccc3)cc2)ccn2c(CC3CC3)nnc12 | 10

Other studies, line by line
SMILES | medium | concentration | temperature | setting | measurement | result
NCCCN1CC(=O)N(CC(c2ccccc2)c2ccccc2)CC(=O)N(CCCN)CC(=O)N(CC(c2ccccc2)c2ccccc2)CC(=O)N(CCCN)CC(=O)N(CC(c2ccccc2)c2ccccc2)CC1=O | DPPC/cholesterol 1:1 monolayer | 20% of MIC | 23 °C | 30 mN/m | area increase per lipid | ≤ 40%

For quick reference, copied from above (sample 1):
SMILES | seizure protection [%]
O=C(O)COc1ccccc1/C=N/NC(=O)CNc1ccc(Cl)cc1 | 80
Cc1ccc(NCC(=O)N/N=C/c2cc(Br)ccc2OCC(=O)O)cc1 | 40
